Experimental data from different studies.
Lines come from different studies, so protocols differ.
UCHL1: Ubiquitin carboxyl-terminal hydrolase isozyme L1 (UCHL1, Homo sapiens, UniProt P09936)
Sequence of UniProt P09936 (whole entry, looked up): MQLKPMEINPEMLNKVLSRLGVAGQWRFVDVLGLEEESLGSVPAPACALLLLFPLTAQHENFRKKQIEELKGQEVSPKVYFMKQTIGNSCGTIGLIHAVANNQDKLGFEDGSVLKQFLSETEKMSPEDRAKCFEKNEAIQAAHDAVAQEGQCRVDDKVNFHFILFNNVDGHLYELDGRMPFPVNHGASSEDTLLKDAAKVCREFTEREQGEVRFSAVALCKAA
T1: RNA aptamer (Homo sapiens); chain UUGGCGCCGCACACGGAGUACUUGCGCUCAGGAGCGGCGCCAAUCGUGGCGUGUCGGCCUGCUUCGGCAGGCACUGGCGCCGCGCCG; chain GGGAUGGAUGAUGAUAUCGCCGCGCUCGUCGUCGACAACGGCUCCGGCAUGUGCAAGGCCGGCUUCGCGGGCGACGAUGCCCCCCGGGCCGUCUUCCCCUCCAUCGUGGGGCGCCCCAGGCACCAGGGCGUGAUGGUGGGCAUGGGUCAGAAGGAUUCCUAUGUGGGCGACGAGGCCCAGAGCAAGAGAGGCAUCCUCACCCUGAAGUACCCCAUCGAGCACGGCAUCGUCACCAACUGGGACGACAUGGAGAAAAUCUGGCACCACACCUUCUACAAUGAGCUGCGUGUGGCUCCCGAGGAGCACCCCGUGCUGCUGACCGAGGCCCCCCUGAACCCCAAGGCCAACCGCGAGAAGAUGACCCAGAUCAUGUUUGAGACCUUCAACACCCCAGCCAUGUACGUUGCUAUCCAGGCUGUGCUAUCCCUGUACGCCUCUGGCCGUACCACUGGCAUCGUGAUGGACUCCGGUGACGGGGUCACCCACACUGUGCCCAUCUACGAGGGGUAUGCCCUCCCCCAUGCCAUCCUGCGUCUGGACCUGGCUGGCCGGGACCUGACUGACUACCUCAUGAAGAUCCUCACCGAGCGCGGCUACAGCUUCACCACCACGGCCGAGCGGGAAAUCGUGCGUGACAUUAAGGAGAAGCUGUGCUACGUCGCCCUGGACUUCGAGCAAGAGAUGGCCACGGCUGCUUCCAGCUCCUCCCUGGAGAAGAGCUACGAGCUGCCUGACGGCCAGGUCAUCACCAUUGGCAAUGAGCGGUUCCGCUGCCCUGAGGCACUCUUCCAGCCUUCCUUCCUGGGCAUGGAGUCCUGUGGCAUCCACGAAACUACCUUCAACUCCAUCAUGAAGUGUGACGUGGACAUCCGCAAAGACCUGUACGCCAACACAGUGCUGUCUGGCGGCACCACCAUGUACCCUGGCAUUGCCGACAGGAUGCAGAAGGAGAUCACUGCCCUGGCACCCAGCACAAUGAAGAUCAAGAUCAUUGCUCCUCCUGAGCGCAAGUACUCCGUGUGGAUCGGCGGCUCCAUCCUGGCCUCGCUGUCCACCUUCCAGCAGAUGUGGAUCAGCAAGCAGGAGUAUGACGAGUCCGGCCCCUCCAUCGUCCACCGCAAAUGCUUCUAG
T2: RNA aptamer; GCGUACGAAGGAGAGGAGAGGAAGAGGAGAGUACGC
T3: RNA aptamer, 5'-triphosphate, 3'-UU overhang, 2',3'-cyclic phosphate; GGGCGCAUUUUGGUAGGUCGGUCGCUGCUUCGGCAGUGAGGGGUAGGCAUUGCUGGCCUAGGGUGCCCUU
T4: RNA aptamer, 5'-triphosphate; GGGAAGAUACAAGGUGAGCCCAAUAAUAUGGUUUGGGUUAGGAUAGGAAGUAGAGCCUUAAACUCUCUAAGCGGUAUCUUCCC
T5: RNA aptamer; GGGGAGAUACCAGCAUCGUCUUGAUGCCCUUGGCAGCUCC
T6: RNA aptamer; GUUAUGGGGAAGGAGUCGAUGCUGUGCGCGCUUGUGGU
T7: RNA aptamer; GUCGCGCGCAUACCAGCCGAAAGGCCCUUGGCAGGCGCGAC
T8: RNA aptamer; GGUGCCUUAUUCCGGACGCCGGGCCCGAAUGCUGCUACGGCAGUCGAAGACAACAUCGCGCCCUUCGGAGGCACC
T9: RNA aptamer, 1-bp stem, UUCG tetraloop; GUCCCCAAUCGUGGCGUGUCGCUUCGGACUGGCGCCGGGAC
T10: RNA aptamer; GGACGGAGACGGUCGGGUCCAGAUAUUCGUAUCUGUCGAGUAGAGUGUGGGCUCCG

CN(CCO)c1cc2sc(/C=C(\C#N)c3ccc(C#N)cc3)cc2s1 — binding (T1, RNA aptamer (Homo sapiens); fluorescence activation): binds
CN(C)c1ccc(Nc2c3ccc(NC(=O)CCN4CCCC4)cc3nc3cc(NC(=O)CCN4CCCC4)ccc23)cc1 — binding (T2, RNA aptamer; competitor, competition fluorescence): binds
Nc1nc2c(ncn2[C@@H]2O[C@H](COP(=O)(O)OP(=O)(O)OP(=O)(O)O)[C@@H](O)[C@H]2O)c(=O)[nH]1 — binding (T3, RNA aptamer, 5'-triphosphate, 3'-UU overhang, 2',3'-cyclic phosphate; X-ray crystallography): binds
CN1C(=O)/C(=C/c2cc(F)c(O)c(F)c2)N=C1/C=N/O — binding (T4, RNA aptamer, 5'-triphosphate; X-ray crystallography): binds
NC(=O)Nc1ccc(C(=O)CCl)cc1 — labelling (UCHL1; covalent, intact protein LC-MS; 12.5 µM): 19%
Cn1c(=O)c2c(ncn2C)n(C)c1=O — binding (T5, RNA aptamer; competitor, ThT displacement fluorescence; MgCl2 mM): no binding
Cc1ccc2c(c1)sc(-c1ccc(N(C)C)cc1)[n+]2C — binding (T4, RNA aptamer, 5'-triphosphate; fluorescence turn-on): binds
CN1C=CC(=Cc2sc3ccccc3[n+]2CC(=O)NCCOCCOCCOCCNC(=O)CCCC[C@@H]2SC[C@@H]3NC(=O)N[C@@H]32)c2ccccc21 — binding (T6, RNA aptamer; fluorescence light-up; 10 µM dye): binds
CC1=N/C(=C\c2cc(F)c(O)c(F)c2)C(=O)N1CC(F)(F)F — binding (T4, RNA aptamer, 5'-triphosphate; 19F NMR): binds
Cc1cccc(C)c1NC(=O)C(C#N)=Cc1ccc(OC(F)F)cc1 — labelling (UCHL1; covalent, intact protein LC-MS; 12.5 µM): 28.3%
Cn1c(=O)c2[nH]cnc2n(C)c1=O — binding (T7, RNA aptamer; NMR titration; together with: theophylline): binds
CN(C)c1ccc2c(-c3ccc(C(=O)NCCOCCOCCNc4ccc([N+](=O)[O-])cc4[N+](=O)[O-])cc3C(=O)[O-])c3ccc(N(C)C)cc3[o+]c2c1 — binding (T8, RNA aptamer; fluorescence turn-on; MgCl2 5 mM, KCl 100 mM): binds
CN(CCO)c1cc2sc(/C=C(\C#N)c3ccc(C#N)cc3)cc2s1 — binding (T9, RNA aptamer, 1-bp stem, UUCG tetraloop; fluorescence turn-on): binds weakly
CC1=N/C(=C\c2cc(F)c(O)c(F)c2)C(=O)N1CC(F)(F)F — binding (T10, RNA aptamer; fluorescence turn-on; MgCl2 5 mM, KCl 100 mM): binds

A few entries again:
CN(C)c1ccc2c(-c3ccc(C(=O)NCCOCCOCCNc4ccc([N+](=O)[O-])cc4[N+](=O)[O-])cc3C(=O)[O-])c3ccc(N(C)C)cc3[o+]c2c1 — binding (T8, RNA aptamer; fluorescence turn-on; MgCl2 5 mM, KCl 100 mM): binds
CN(CCO)c1cc2sc(/C=C(\C#N)c3ccc(C#N)cc3)cc2s1 — binding (T9, RNA aptamer, 1-bp stem, UUCG tetraloop; fluorescence turn-on): binds weakly
